# Published values collected from several papers.
# Parts stem from different laboratories: compare values within a part only. Substitutions count along the parent as printed.

# Block 1 — target: CCNB2, cyclin fold, Cln2 fusion (human); method: yeast growth competition, sequencing; medium: yeast; notes: weak parent motif; reference: not given; direction: higher = stronger binding
# Parent: MASTL docking peptide (human); PMIAKNLMCELDE; partner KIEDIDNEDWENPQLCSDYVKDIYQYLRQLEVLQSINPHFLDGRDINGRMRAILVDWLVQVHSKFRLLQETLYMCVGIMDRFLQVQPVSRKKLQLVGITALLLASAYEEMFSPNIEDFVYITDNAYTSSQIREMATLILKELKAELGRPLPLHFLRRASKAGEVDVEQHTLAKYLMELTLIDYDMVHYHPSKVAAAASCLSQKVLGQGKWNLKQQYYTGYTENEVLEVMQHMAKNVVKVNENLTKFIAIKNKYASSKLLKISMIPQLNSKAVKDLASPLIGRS
Substitution,normalised enrichment score
L11V,0.109
M8Y,0.388
M8P,-0.385
N6F,-0.273
M8H,0.0615
E10S,0.148
M2N,1.16
C9R,0.964
I3H,-0.129
L7P,-0.0244
N6I,0.271
K5N,-0.135
K5E,-0.262
N6R,0.45
M2T,1.06
E10I,0.709
K5C,0.246
K5S,-0.25
E10N,0.0618

# Block 2 — method: DHFR PCA, deep sequencing; medium: yeast; together with: (+)-ABA 2500 µM; reference: wild-type fitted maximum; direction: higher = stronger binding
# Target: ABI1, truncated, D143A, DHFR fusion (Arabidopsis thaliana)
# Notes: methotrexate growth selection, single substitutions
# Parent: PYL1, truncated, DHFR fusion (Arabidopsis thaliana); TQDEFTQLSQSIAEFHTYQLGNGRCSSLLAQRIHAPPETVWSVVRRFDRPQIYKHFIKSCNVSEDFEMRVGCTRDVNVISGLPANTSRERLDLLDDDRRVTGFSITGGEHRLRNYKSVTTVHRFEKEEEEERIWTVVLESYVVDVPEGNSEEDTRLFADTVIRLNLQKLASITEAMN; partner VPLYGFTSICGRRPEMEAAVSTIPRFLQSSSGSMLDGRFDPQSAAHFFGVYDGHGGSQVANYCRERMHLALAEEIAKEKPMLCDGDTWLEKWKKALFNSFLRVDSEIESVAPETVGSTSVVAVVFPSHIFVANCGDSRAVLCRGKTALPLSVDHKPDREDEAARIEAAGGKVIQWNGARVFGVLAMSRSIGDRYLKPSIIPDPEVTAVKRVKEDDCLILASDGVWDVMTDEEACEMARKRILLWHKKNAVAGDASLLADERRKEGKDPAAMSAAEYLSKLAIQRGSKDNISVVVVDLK
Substitution,relative binding score
R46V,94.7%
T1R,97.9%
P37K,76.3%
T1H,105%
K116D,39%
V145C,92.9%
A170G,94.6%
E147R,93.8%
L28E,46.1%
L29Y,75.7%
P83H,59.9%
P146W,61.4%
L164S,99.6%
L169N,-19.4%
Q10F,95.1%
A13Q,102%
I162H,62%
V142W,82.7%

# Block 3 — method: RNA Bind-n-Seq; form: RNA; medium: in vitro; tested at: not given; reference: input RNA pool; direction: higher = stronger binding
# Target: RING finger protein unkempt homolog, zinc fingers 1-6, GST-SBP tag (UNK, Homo sapiens, UniProt Q9C0B0, residues 30-357)
# Notes: RNA with constant flanks, human and mouse sites, ends assumed
# Shared flanks, not repeated: GGGAGUUCUACAGUCCGACGAUC … CAACAGAGGAUUGAGCAUCA
# Target sequence (chain): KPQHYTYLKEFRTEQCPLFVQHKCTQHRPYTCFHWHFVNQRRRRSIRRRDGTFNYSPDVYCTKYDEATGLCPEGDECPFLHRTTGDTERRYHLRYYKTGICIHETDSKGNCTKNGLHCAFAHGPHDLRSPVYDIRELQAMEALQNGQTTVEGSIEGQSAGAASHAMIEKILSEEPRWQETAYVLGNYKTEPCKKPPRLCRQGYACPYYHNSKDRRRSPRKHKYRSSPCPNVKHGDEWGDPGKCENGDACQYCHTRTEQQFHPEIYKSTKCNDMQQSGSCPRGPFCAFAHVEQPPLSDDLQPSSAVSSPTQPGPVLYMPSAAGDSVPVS
Strand,bound/input enrichment [ratio]
UAUUUUUAUAAUUUUUACUGAUGCUCAGUAACCAUGAAAAACUGUGCACAUUCAUGUACUAAUAGAUCUGUACCUAUCUAUCUCUGUACGCAUAUAUACAGUUCACUGUAGAAAACCACA,1.62
UUCAGCUCACUGCUCCUUUUCUUUUUUUUCUUUCUCUCCCCCGCCCACCCCCCCAAAAAUAAUUGAUUUGCUUUACAAUCAUCCACACUGUGUUUUGUGGAUCUUUAAUUAUAUAUAACA,0.962
UUGUCACCUGCUUUCCACCAAGCACUACUCUCUUUUUGUCGAAUGUCAGCAGAUAGUCGGUUAGGAUCAGAGGUGUCUAGGAUUGCAGACAGUGAAAAAAGUGUUAUGUUAAUGCUGGGA,0.155
ACUUUUGAUUUCUCAGAAGAGGAGGAUGAUGAUGCUGCUGCUGCUGAUGACAGUAAUGAUUUAGAAGAACUGAAAGUUAAAGCAUCUCCCAUAACAAAUGAUGGGGAAGAUGAAUUUGUU,0.655
UUAUACCUUUUGGUUAUAAGCCCUGUGUUUGCCAUCCUUGAUCACUUGGCGGUGACUUUGUAGAGAUUGAAGUGGAGGAGUUAAGACACAUUGACUGUACCACAGACACACAUGUAUACU,0.316
ACACAGCAGGGUGAAGUCAAGAUUCCUGACCCACCCAAAAGUAGAGAGACAGCCACGUCAAGUGCUUGCCGGGCGGCUUACCAAGCGGCCAUCCGAGGCGUGGGUAGUGCCCAGAGCCGU,0.128
GAUAGAAAAUACCACCUAAAGACAUACAGACAAUGCUGUGUGGGAACUGAACUGGUGGACUGGAUGAUGCAGCAGACACCAUGUGUUCACUCCCGGACUCAAGCUGUUGGCAUGUGGCAA,0.363
CCGCCCAUCCGCCUUUCUCUCGGAAUAUUUUGGGAUCCAACCCUCUCUCUAAUUUUGGCCCCUAAUAACUCACUGAGACCCUAAAACAAUGGGCUGACGCUUAUUCUUUUGCCCGCGAUC,0.56
CGUGGUCGGAUGUCCAUGAAGGAGGUCGAUGAGCAGAUGCUUAACGUGCAGAACAAGAACAGCAGCUACUUUGUGGAAUGGAUCCCCAACAAUGUCAAGACAGCCGUCUGUGACAUCCCA,0.0692
AGCACAGAGAGCACAAGACAGAGAUCCUUGUCAUAAUGAGACAGAGAAAGUAACCAAUUUUGGGUAUAAGAAGUGUCAAGCCGGGCAGUGGUAGUGCACGCCUUUAAUCCCAGCACUCGG,0.219
UUAGGCACAGCUGACAUGGCCACUUUCAUGGUCAAUUCACUAUAUAUGAUGAAGACAACAUUAGCUCUAUUUGAAUUCACUGACAGACGUCUGGAAAUGCUACAGUUUCAGAUCGAAGCA,1.04

# Block 4 — method: protein binding microarray; form: double-stranded DNA, one strand shown; medium: in vitro; tested at: not given; reference: not given; direction: higher = stronger binding
# Target: Histone acetyltransferase KAT6A, both winged helices, GST fusion (KAT6A, Homo sapiens, UniProt Q92794, residues 1-181)
# Notes: 8-mer, flanks averaged, mean of 2 arrays, mostly near background
# Construct (chain): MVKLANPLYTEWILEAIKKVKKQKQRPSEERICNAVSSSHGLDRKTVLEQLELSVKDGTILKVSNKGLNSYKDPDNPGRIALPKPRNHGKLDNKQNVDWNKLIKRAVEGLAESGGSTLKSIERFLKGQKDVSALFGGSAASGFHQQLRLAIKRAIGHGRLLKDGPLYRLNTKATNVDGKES
Strand,E-score
CTTATGTA,-0.168
ATATACGA,-0.129
CAGCGTAG,0.0588
GTCATAAA,-0.048
CTCATTTA,-0.247
CATTTTCA,-0.157
AAGAAGCG,0.127
ATCCGCCA,0.103
GCCCACTA,-0.288
ACCGGGAA,0.224
AGCGCGGG,0.341
CACCCATA,-0.144
ATAGTATA,-0.0416
ATGATGGA,-0.0905
CCTGGACG,-0.0757
CTTGCGCA,0.287
GAACCAAC,-0.181
TAACGTTA,0.0341

# Some of these lines once more (block 4):
Strand,E-score
CCTGGACG,-0.0757
ATAGTATA,-0.0416
CAGCGTAG,0.0588
TAACGTTA,0.0341
ACCGGGAA,0.224
CATTTTCA,-0.157
ATGATGGA,-0.0905
CTTGCGCA,0.287
GCCCACTA,-0.288
CTCATTTA,-0.247
